Assay results from different studies.
A part holds a random share of what one study measured. “And” joins repeats or separate records; there may be more than shown.
Chain of UniProt Q8WXR4 (whole entry, looked up): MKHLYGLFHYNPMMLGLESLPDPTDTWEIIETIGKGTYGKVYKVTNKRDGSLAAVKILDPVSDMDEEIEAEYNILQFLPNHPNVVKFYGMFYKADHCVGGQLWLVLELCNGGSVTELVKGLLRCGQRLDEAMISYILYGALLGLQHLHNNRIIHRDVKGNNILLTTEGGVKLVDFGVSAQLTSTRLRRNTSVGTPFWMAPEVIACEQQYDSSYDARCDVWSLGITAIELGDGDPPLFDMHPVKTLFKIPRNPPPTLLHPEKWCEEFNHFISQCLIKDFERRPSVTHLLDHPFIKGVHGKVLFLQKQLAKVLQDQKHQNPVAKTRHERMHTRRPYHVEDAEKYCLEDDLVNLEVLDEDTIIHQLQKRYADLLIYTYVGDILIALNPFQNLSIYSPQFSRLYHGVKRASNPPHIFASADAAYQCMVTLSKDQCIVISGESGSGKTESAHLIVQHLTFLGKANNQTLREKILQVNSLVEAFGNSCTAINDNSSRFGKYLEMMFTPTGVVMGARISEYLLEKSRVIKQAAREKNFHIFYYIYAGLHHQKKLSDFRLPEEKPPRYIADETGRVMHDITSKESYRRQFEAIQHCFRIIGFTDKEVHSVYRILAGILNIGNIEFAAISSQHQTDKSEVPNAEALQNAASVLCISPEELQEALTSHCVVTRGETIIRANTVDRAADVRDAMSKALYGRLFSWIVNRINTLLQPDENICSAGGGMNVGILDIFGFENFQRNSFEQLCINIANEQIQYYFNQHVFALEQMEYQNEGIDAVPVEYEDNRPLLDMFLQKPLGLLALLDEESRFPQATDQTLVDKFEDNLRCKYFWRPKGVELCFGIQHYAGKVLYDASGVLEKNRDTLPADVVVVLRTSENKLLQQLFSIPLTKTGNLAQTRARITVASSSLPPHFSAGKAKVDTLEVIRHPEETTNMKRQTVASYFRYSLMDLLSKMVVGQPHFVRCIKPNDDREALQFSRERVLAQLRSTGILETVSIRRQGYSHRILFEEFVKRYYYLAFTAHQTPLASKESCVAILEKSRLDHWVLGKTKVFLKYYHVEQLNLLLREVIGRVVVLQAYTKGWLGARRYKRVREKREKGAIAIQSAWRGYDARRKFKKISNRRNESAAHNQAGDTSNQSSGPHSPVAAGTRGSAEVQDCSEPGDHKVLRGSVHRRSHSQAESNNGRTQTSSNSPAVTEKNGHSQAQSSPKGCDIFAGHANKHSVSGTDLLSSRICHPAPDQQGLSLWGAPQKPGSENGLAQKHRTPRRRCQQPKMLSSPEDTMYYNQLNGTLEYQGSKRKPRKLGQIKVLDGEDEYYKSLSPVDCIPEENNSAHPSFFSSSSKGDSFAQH
Chain of UniProt Q6P2M8 (whole entry, looked up): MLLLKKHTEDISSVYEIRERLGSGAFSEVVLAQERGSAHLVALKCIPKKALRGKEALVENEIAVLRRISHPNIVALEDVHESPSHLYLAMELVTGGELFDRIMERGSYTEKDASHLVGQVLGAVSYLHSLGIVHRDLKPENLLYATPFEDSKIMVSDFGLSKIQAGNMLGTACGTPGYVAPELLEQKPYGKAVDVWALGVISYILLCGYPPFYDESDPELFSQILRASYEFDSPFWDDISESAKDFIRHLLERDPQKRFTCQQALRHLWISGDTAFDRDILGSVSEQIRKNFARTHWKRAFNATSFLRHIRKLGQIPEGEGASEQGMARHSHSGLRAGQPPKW
Chain of UniProt Q02750 (whole entry, looked up): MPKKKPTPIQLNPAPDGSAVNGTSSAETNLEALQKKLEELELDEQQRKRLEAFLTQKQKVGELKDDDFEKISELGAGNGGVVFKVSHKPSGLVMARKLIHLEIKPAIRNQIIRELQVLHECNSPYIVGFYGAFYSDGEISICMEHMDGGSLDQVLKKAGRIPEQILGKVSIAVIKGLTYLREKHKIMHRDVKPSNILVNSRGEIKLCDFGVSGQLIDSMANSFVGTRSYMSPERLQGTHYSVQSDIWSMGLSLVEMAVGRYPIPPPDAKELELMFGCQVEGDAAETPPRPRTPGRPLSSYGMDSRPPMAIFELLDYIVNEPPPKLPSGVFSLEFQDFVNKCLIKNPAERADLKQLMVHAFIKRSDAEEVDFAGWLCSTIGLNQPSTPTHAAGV

Sample 1
Cell line: A-375
Tested at: 100 µM
Time: 18 h
CC1(C)S[C@@H]2[C@H](NC(=O)C(C(=O)O)c3ccccc3)C(=O)N2[C@H]1C(=O)O (stereo partly drawn) has a viability of 95.7%.
Cc1ccc(-c2ncc(Cl)cc2-c2ccc(S(C)(=O)=O)cc2)cn1 has a viability of 87%.
With NC(=O)c1ccccc1O the viability was 77.6%.
COc1ccc2cc3[n+](cc2c1OC)CCc1cc2c(cc1-3)OCO2 has a viability of 68.5%.
O=C1O[C@H]([C@@H](O)CO)C(O)=C1O gave a viability of 100%.
With COc1ccc([C@@H]2CC(=O)c3c(O)cc(O[C@@H]4O[C@H](CO[C@@H]5O[C@@H](C)[C@H](O)[C@@H](O)[C@H]5O)[C@@H](O)[C@H](O)[C@H]4O)cc3O2)cc1OC the viability was 98%.
CO[C@H]1C[C@@H]2CC[C@@H](C)[C@@](O)(O2)C(=O)C(=O)N2CCCC[C@H]2C(=O)O[C@H]([C@H](C)C[C@@H]2CC[C@@H](O)[C@H](OC)C2)CC(=O)[C@H](C)/C=C(\C)[C@@H](O)[C@@H](OC)C(=O)[C@H](C)C[C@H](C)/C=C/C=C/C=C/1C gave a viability of 35.5%.
With COc1cc(C(=O)N2CCOCC2)cc(OC)c1OC the viability was 107%.

Sample 2
Target: D(4) dopamine receptor (DRD4, Homo sapiens, UniProt P21917)
Chain of UniProt P21917 (whole entry, looked up): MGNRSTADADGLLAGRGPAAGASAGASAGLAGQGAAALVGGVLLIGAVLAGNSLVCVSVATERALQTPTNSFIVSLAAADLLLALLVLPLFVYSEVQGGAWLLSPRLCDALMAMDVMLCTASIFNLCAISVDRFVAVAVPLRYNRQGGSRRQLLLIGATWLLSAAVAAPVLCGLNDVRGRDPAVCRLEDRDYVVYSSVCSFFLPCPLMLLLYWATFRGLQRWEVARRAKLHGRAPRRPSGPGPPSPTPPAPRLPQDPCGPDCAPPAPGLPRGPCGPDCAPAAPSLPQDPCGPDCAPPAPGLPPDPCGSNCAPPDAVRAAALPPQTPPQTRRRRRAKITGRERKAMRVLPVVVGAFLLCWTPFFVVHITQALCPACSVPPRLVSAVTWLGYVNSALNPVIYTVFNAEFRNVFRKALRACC
Observed: binding
Method: radioligand binding
Tested at: 10 µM
For CC(C)(O)c1cncc(-c2nc3ccc(F)cc3n2C2CC2)c1, the inhibition was -5.72%.
CS(=O)(=O)NCC[C@H](NC(=O)c1cncc2c1cnn2-c1ccc(F)cc1)c1ccnc(S(C)(=O)=O)c1 has an inhibition of -5.61%.
The inhibition of Cc1c[nH]c2nccc(Oc3c(F)cc(Nc4cc(Cl)nc(N)n4)cc3F)c12 is reported as 11.4%.
CN1C(=O)[C@@H](N2CCc3cn(Cc4ccccc4)nc3C2=O)COc2ccccc21 gave an inhibition of 17.4%.
CNC(=O)Nc1ccc2c(c1)[C@]1(CC2)OC(=O)N(CC(=O)N(Cc2ccc(F)cc2)[C@@H](C)C(F)(F)F)C1=O has an inhibition of 8.38%.
Cc1cc(-n2nc(Cc3cc(F)cc(C(F)(F)F)c3)nc2C)ccc1C(N)=O has an inhibition of -2.09%.
Nc1c(C(=O)NCc2ccc(C(=O)NCCCC3CCCCC3)cc2)cnn1-c1ccccc1 has an inhibition of -12.9%.
O=C(O)c1cc(-c2ccc(C3CCNCC3)cc2)c2ccc(-c3ccc(C(F)(F)F)cc3)cc2c1 has an inhibition of 10.4%.
For CN1CCN(C(=O)C(C)(C)c2ccc(C(=O)Nc3cn4cc(-c5ccncc5)ccc4n3)cc2)CC1, the inhibition was 9.12%.
For CC(=O)c1c(NS(C)(=O)=O)c2cc(-c3ccc(Cl)cc3)c(-c3ccc(Cl)cc3Cl)nc2n(C)c1=O, the inhibition was 17.1%.
CC(C)CC(=O)N1CCc2nc(-c3ccc(Br)cc3)nc(N(C)Cc3ccccc3)c2C1 has an inhibition of 7.93%.

Sample 3
Structure (SMILES): COc1cc2c(N3CCN(C(=O)Nc4ccc(OC(C)C)cc4)CC3)ncnc2cc1OCCCN1CCCCC1
Observed: enzyme activity
Action: inhibitor
Tested at: 0.5 µM
Reference: control
For PRKG2 (Homo sapiens, UniProt Q13237): remaining activity read 105%.
NEK3 (Homo sapiens, UniProt P51956) — remaining activity: 103%.
PNCK (Homo sapiens, UniProt Q6P2M8) — remaining activity: 97.7%.
The remaining activity was 88.7% (CLK4 (Homo sapiens, UniProt Q9HAZ1)).
For MAP2K1 (Homo sapiens, UniProt Q02750): remaining activity read 113%.
The remaining activity was 87% (MAPK1 (Homo sapiens, UniProt P28482)).
Myosin-IIIb (MYO3B, Homo sapiens, UniProt Q8WXR4) — remaining activity: 88.5%.
AKT2 (Homo sapiens, UniProt P31751) — remaining activity: 97.9%.
For MINK1 (Homo sapiens, UniProt Q8N4C8): remaining activity read 99%.
It gave 96% for remaining activity (Cyclin-dependent kinase 1, with cyclin A (CDK1, Homo sapiens, UniProt P06493)).
It gave 98.7% for remaining activity (MARK4 (Homo sapiens, UniProt Q96L34)).
It gave 94.1% for remaining activity (MAPK14 (Homo sapiens, UniProt Q16539)).
The remaining activity was 105% (PAK3 (Homo sapiens, UniProt O75914)).
For PLK3 (Homo sapiens, UniProt Q9H4B4): remaining activity read 99.3%.
The remaining activity was 105% (MAPK11 (Homo sapiens, UniProt Q15759)).
TXK (Homo sapiens, UniProt P42681) — remaining activity: 105%.
For MARK2 (Homo sapiens, UniProt Q7KZI7): remaining activity read 109%.
The remaining activity was 102% (ROCK1 (Homo sapiens, UniProt Q13464)).
For MET (Homo sapiens, UniProt P08581): remaining activity read 92.5%.
Cyclin-dependent kinase 9, with cyclin K (CDK9, Homo sapiens, UniProt P50750) — remaining activity: 107%.

Sample 4
Target: DNA polymerase theta, ATPase domain (POLQ, Homo sapiens, UniProt O75417)
Chain of UniProt O75417 (whole entry, unmodified, looked up): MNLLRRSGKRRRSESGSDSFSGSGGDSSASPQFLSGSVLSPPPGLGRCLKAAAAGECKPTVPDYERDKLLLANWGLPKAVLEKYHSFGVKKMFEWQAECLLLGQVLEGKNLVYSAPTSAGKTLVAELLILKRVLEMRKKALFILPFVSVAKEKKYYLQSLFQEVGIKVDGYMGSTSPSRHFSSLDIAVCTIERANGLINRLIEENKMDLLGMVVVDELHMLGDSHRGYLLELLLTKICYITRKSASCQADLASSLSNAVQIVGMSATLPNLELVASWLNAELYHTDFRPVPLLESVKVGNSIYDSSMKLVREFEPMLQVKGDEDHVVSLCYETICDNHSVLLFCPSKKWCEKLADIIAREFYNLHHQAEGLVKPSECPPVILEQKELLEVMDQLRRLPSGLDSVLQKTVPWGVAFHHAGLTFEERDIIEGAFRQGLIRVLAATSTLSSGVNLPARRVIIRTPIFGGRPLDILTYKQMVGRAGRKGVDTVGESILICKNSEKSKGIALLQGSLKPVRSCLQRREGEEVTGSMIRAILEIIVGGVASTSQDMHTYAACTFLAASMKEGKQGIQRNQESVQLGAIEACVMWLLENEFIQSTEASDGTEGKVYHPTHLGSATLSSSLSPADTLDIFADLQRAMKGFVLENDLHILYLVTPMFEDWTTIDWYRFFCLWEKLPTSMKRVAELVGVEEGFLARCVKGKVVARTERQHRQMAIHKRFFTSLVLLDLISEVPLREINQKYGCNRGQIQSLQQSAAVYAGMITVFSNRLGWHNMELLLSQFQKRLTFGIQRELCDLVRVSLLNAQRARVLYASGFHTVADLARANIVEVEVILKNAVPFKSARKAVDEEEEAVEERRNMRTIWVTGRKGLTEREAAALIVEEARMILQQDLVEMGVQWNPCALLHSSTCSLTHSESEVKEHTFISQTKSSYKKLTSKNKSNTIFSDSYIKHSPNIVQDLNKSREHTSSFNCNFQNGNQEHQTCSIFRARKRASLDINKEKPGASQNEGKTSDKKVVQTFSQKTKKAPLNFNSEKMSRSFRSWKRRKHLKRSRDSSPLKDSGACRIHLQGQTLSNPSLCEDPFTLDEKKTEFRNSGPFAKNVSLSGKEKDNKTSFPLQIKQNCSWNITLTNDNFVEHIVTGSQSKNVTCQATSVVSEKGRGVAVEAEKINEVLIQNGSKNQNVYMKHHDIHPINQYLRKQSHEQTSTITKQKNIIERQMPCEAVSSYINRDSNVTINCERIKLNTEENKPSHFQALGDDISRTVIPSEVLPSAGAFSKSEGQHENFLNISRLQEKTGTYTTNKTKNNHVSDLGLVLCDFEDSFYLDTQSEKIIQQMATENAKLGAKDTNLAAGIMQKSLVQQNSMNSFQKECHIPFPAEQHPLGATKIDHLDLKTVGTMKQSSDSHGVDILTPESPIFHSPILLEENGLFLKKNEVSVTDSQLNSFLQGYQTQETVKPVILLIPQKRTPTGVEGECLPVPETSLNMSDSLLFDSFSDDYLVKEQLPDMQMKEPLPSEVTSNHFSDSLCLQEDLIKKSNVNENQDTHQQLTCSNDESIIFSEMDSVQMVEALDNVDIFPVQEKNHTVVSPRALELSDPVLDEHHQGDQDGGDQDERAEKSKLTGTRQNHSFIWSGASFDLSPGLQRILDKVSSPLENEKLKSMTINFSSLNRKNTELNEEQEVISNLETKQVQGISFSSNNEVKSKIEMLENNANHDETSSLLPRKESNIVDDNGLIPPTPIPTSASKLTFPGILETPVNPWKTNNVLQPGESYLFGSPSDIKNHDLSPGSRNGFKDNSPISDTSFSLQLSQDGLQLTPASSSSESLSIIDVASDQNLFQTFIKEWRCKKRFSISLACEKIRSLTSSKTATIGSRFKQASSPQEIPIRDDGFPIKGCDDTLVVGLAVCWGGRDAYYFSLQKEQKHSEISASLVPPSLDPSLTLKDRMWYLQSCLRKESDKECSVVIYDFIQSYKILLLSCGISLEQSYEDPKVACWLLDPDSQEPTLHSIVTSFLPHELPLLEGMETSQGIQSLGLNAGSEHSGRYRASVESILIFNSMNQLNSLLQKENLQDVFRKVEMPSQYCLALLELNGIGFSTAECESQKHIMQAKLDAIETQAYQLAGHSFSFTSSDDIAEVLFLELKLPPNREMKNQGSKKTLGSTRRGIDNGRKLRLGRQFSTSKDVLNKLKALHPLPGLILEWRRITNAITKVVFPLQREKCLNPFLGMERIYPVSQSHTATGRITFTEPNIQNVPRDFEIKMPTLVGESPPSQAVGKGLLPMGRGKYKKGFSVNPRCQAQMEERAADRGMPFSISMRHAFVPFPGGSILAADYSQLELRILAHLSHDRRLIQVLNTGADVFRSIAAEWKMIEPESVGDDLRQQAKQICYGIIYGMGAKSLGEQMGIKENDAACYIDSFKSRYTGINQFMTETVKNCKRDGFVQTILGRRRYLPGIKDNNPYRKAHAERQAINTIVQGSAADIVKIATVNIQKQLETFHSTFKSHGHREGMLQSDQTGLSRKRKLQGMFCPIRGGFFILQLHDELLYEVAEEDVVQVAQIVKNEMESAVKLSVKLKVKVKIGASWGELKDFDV
Observed: enzyme activity
Action: inhibitor
Tested at: 77 µM
Reference: untreated
The remaining activity of O=C(O)P(=O)(O)O is reported as 99.5%.
With CO[C@H]1/C=C/O[C@@]2(C)Oc3c(C)c(O)c4c(c3C2=O)C2=NC3(CCN(CC(C)C)CC3)NC2=C(NC(=O)/C(C)=C\C=C\[C@H](C)[C@H](O)[C@@H](C)[C@@H](O)[C@@H](C)[C@H](OC(C)=O)[C@@H]1C)C4=O the remaining activity was 98.3% and 95.9%.
CCN1CCN(C(=O)N[C@@H](C(=O)N[C@@H]2C(=O)N3C(C(=O)O)=C(CSc4nnnn4C)CS[C@H]23)c2ccc(O)cc2)C(=O)C1=O gave a remaining activity of 98.1% and 101%.
The remaining activity of CNC(=O)[C@H]1O[C@@H](n2cnc3c(NCc4cccc(I)c4)ncnc32)[C@H](O)[C@@H]1O is reported as 107%.
CO[C@H]1/C=C/O[C@@]2(C)Oc3c(C)c(O)c4c(O)c(c5c(nc6cc(C)ccn65)c4c3C2=O)NC(=O)/C(C)=C\C=C\[C@H](C)[C@H](O)[C@@H](C)[C@@H](O)[C@@H](C)[C@H](OC(C)=O)[C@@H]1C has a remaining activity of 103%.
Cc1cc(C(=O)NNCc2ccccc2)no1 gave a remaining activity of 96.2%.

Some of these lines once more (sample 2):
CS(=O)(=O)NCC[C@H](NC(=O)c1cncc2c1cnn2-c1ccc(F)cc1)c1ccnc(S(C)(=O)=O)c1 has an inhibition of -5.61%.
The inhibition of Cc1c[nH]c2nccc(Oc3c(F)cc(Nc4cc(Cl)nc(N)n4)cc3F)c12 is reported as 11.4%.
CN1C(=O)[C@@H](N2CCc3cn(Cc4ccccc4)nc3C2=O)COc2ccccc21 gave an inhibition of 17.4%.
CNC(=O)Nc1ccc2c(c1)[C@]1(CC2)OC(=O)N(CC(=O)N(Cc2ccc(F)cc2)[C@@H](C)C(F)(F)F)C1=O has an inhibition of 8.38%.
Cc1cc(-n2nc(Cc3cc(F)cc(C(F)(F)F)c3)nc2C)ccc1C(N)=O has an inhibition of -2.09%.
Nc1c(C(=O)NCc2ccc(C(=O)NCCCC3CCCCC3)cc2)cnn1-c1ccccc1 has an inhibition of -12.9%.
O=C(O)c1cc(-c2ccc(C3CCNCC3)cc2)c2ccc(-c3ccc(C(F)(F)F)cc3)cc2c1 has an inhibition of 10.4%.
